Measured values pooled from the literature.
Several values in a cell are separate wells, animals, samples, runs or records. ± gives the spread as reported.
CXCR4: C-X-C chemokine receptor type 4 (CXCR4, Homo sapiens, UniProt P61073)
Protein farnesyltransferase: Protein farnesyltransferase (Homo sapiens, UniProt P49354+P49356)
SLC10A1: Hepatic sodium/bile acid cotransporter (SLC10A1, Homo sapiens, UniProt Q14973)
T1: RNA aptamer del A43; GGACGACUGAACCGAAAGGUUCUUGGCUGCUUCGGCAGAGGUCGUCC
T2: RNA aptamer; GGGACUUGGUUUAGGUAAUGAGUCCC
T3: RNA aptamer original isolate 9-12; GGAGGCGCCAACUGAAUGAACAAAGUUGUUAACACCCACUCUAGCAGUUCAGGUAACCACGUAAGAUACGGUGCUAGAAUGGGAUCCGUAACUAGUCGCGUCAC

Molecule | target | test | system | setting | scale | endpoint | result
CN(Cc1cccc(CN(C)c2ccc(F)cc2)n1)c1ccc(F)cc1 | CXCR4 | binding, competition binding | MDA-MB-231 | semi-quantitative screen, with: biotinylated TN14003 | – | lowest effective concentration | 1000 nM
CVLL | Protein farnesyltransferase | enzyme activity, substrate, fluorimetric | peptide | 3 µM, 30 min, with: 9 µM farnesyl diphosphate | baseline: dansyl-GCVLS (set to 1.0) | relative fluorescence increase | < 0.05
O=C(NC1CCC2(CCCC2)CC1)c1ccc(-c2ccccc2)cc1 | Transient receptor potential cation channel subfamily M member 8 (TRPM8, Homo sapiens, UniProt Q7Z2W7) | Ca2+ entry, antagonist, Fura-2 Ca2+ imaging | HEK293 expressing TRPM8 | with: icilin 500 nM | – | lowest effective concentration | 3 nM
CN(C)c1ccc2c(-c3ccc(C(=O)O)cc3C(=O)[O-])c3ccc(=[N+](C)C)cc-3oc2c1 | T1, RNA aptamer del A43 | fluorescence quenching titration | – | pH 7.5, 25 °C, NaCl 15 mM, no Mg2+ | – | Kd | 1240 nM
CGCL | Protein farnesyltransferase | enzyme activity, substrate, fluorimetric | peptide | 3 µM, 30 min, with: 9 µM farnesyl diphosphate | baseline: dansyl-GCVLS (set to 1.0) | relative fluorescence increase | 0
CN(Cc1ccncc1)Cc1ccc(CN(C)Cc2ccncc2)cc1 | CXCR4 | binding, competition binding | MDA-MB-231 | semi-quantitative screen, with: biotinylated TN14003 | – | lowest effective concentration | > 1000 nM
Cc1cc2nc[nH]c2cc1C | Nicotinate-nucleotide--dimethylbenzimidazole phosphoribosyltransferase (cobT, Dehalococcoides mccartyi, UniProt A5FRG9) | alpha-ribazole phosphate formation, substrate | – | 250 µM, 30 min, pH 7.5, 30 °C, with: 2 mM NaMN | – | product formed | 159.4 ± 1.13 µM
CNIL | Protein farnesyltransferase | enzyme activity, substrate, fluorimetric | peptide | 3 µM, 30 min, with: 9 µM farnesyl diphosphate | baseline: dansyl-GCVLS (set to 1.0) | relative fluorescence increase | 0.22
CN(C)c1ccc(C(=C2C=CC(=[N+](C)C)C=C2)c2ccc(N(C)C)cc2)cc1 | Cell division cycle 7-related protein kinase, with DBF4 (CDC7, Homo sapiens, UniProt O00311) | kinase activity, scintillation proximity | – | 10 µM, 1% DMSO, with: Dbf4 | – | inhibition | > 30%
CC[C@H](C)[C@H](NC(=O)[C@H](Cc1c[nH]cn1)NC(=O)[C@H](CC(=O)O)NC(=O)[C@H](C)NC(=O)[C@H](C)NC(=O)[C@@H](NC(=O)[C@@H](NC(=O)[C@H](CC(C)C)NC(=O)[C@H](CCCNC(=N)N)NC(=O)[C@H](Cc1c[nH]cn1)NC(=O)[C@@H](NC(=O)[C@H](CCCNC(=N)N)NC(=O)[C@@H]1CCCN1C(=O)[C@@H](NC(=O)[C@H](CCC(N)=O)NC(=O)CN)C(C)C)[C@@H](C)O)[C@@H](C)CC)[C@@H](C)O)C(=O)N[C@@H](CS)C(=O)N[C@@H](CCC(N)=O)C(=O)N[C@H](C(=O)N[C@H](C(=O)N[C@H](C(=O)N[C@@H](CCC(N)=O)C(=O)N[C@@H](CC(=O)O)C(=O)N[C@@H](Cc1ccccc1)C(=O)N[C@@H](C)C(=O)N[C@@H](CCCNC(=N)N)C(=O)O)[C@@H](C)O)[C@@H](C)CC)[C@@H](C)CC | Nuclear receptor subfamily 1 group D member 1 (NR1D1, Homo sapiens, UniProt P20393) | NCoR peptide binding, competitor, TR-FRET | – | 1 h, with: labelled NCoR 2040-2065 peptide | baseline: mutant over wild-type peptide | IC50 fold change | 2.7
CCCN(CCC)S(=O)(=O)c1ccc(C(=O)O)cc1 | SLC10A1 | inhibitor | HEK293 expressing NTCP | 100 µM, 5 min, with: taurocholate 10 µM | baseline: no compound | taurocholate uptake | 86.8 ± 3.3%
NC[C@H]1O[C@H](O[C@H]2[C@H](O)[C@@H](O[C@H]3O[C@H](CO)[C@@H](O)[C@H](N)[C@H]3O)[C@H](N)C[C@@H]2N)[C@H](N)C[C@@H]1O | T2, RNA aptamer | square wave voltammetry | – | apparent, on gold electrode, electrochemical aptamer sensor | – | Kd | 23000 nM
COc1cc(O)c2c(=O)c(-c3ccc(O)cc3)coc2c1 | UDP-glucuronosyltransferase 1A9 (UGT1A9, Homo sapiens, UniProt O60656) | substrate | – | pH 7.4, 37 °C | – | Vmax | 230 pmol/mg/min
Nc1ncc(-c2ccncc2)nc1Nc1ccc2[nH]ccc2c1 | Receptor-type tyrosine-protein kinase FLT3 (FLT3, Homo sapiens, UniProt P36888) | enzyme activity, inhibitor, radiometric | – | 1 µM | – | remaining activity | < 20%
O=C(NCc1ccc(F)cc1)C1CCN(S(=O)(=O)c2cc(Cl)cc(Cl)c2)CC1 | Na(+)/citrate cotransporter (Homo sapiens, UniProt Q86YT5) | inhibitor, item: citrate uptake | HepG2 | 10 µM, 30 min, preincubated then washed | baseline: control | remaining activity | < 5%
CILL | Protein farnesyltransferase | enzyme activity, substrate, fluorimetric | peptide | 3 µM, 30 min, with: 9 µM farnesyl diphosphate | baseline: dansyl-GCVLS (set to 1.0) | relative fluorescence increase | 0.15
O=C(O)c1ccc(NC(c2ccc(Br)cc2)c2ccc3cccnc3c2O)cc1 (stereo not shown) | CAAX prenyl protease 2 (Homo sapiens, UniProt Q9Y256) | enzyme activity, inhibitor | – | 10 µM | – | remaining activity | 23 to 32%

Molecule | target | test | system | setting | scale | endpoint | result
Nc1nc2c(ncn2[C@@H]2O[C@H](COP(=O)(O)OP(=O)(O)OP(=O)(O)O)[C@@H](O)[C@H]2O)c(=O)[nH]1 | T3, RNA aptamer original isolate 9-12 | ultrafiltration | – | apparent, with: GTP | – | Kd | 300 nM
CCCC/C=C\CCCCCCCCCCCC=O | chemosensory protein 1 (Chilo suppressalis, UniProt V9PY22) | binding, competitive ligand, fluorescence competitive binding | – | highest concentration tested, pH 7.4, protein 2 µM, with: 1-NPN 2 µM | baseline: no ligand | remaining 1-NPN fluorescence | 51.1 ± 1.62%
CC1N=C2C(=O)N=C(N)N=C2NC1C (stereo not shown) | Pteridine reductase (PTR1, Trypanosoma brucei brucei, UniProt O76290) | substrate inhibition, substrate, NADPH oxidation | Trypanosoma brucei | pH 7.4, 25 °C, substrate made in situ, with: NADPH 50 µM | – | Ki | 475000 ± 91000 nM
CNc1ncnc2c1ncn2[C@H]1C[C@H](OP(=O)(O)O)[C@@H](COP(=O)(O)O)O1.N.N | Uracil nucleotide/cysteinyl leukotriene receptor, short isoform (GPR17, Homo sapiens, UniProt Q13304, R283I) | frontal affinity chromatography-MS | mutated receptor IAM column | concentration not given | baseline: wild type column | breakthrough time change | -4.1%
COc1cc2c(NC3CCN(CCCC(=O)NCCC(=O)N[C@H](C(=O)N4C[C@H](O)C[C@H]4C(=O)NCc4ccc(-c5scnc5C)cc4)C(C)(C)C)CC3)nc(N3CCC(F)(F)CC3)nc2cc1OCCCN1CCCC1 | Histone-lysine N-methyltransferase EHMT2 (EHMT2, Homo sapiens, UniProt Q96KQ7) | degrader, western blot | – | 0.3 µM, 24 h | baseline: DMSO | degradation | 66 ± 23%
O=c1ccn([C@@H]2O[C@H](COP(=O)([O-])OP(=O)([O-])[O-])[C@@H](O)[C@H]2O)c(=O)[nH]1.[Na+].[Na+].[Na+] | Uracil nucleotide/cysteinyl leukotriene receptor (GPR17, Homo sapiens, UniProt Q13304) | frontal affinity chromatography-MS | immobilized on IAM column | 1 µM, compound mixture | – | breakthrough time | 3.2 min
Cc1c(OCC(F)(F)F)ccnc1C[S+]([O-])c1nc2ccccc2[nH]1 (stereo not shown) | Alzheimer paired helical filaments | surface plasmon resonance | – | 150 µM, response per molecular weight | baseline: thioflavin S | relative binding | 0.7
CN(Cc1ccccn1)Cc1cccc(CN(C)Cc2ccccn2)n1 | CXCR4 | binding, competition binding | MDA-MB-231 | semi-quantitative screen, with: biotinylated TN14003 | – | lowest effective concentration | 10 nM
insulin icodec | human serum albumin | radioligand binding | HSA-agarose | – | baseline: compound over insulin detemir | albumin binding affinity ratio | 9.5 ± 0.6 fold
CCCC/C=C\CCCCCCCCCC=O | Chilo suppressalis CSP2 | binding, competitive ligand, fluorescence competitive binding | – | highest concentration tested, pH 7.4, protein 2 µM, with: 1-NPN 2 µM | baseline: no ligand | remaining 1-NPN fluorescence | 28.6 ± 0.52%
CCCC1O[C@@H]2C[C@H]3[C@@H]4CCC5=CC(=O)C=C[C@]5(C)[C@H]4[C@@H](O)C[C@]3(C)[C@]2(C(=O)CO)O1 (stereo partly shown) | SLC10A1 | inhibitor | HEK293 expressing NTCP | 100 µM, 5 min, with: taurocholate 10 µM | baseline: no compound | taurocholate uptake | 79.3 ± 6.4%
CCCCCCCC/C=C\CCCCCCCC(=O)O | Chilo suppressalis CSP2 | binding, competitive fluorescence displacement | – | 30 µM, pH 7.4 | – | fluorescence intensity | 82 ± 3.32%
CHAL | Protein farnesyltransferase | enzyme activity, substrate, fluorimetric | peptide | 3 µM, 30 min, with: 9 µM farnesyl diphosphate | baseline: dansyl-GCVLS (set to 1.0) | relative fluorescence increase | 0
CCC/C=C/CO | Chilo suppressalis CSP2 | binding, competitive ligand, fluorescence competitive binding | – | highest concentration tested, pH 7.4, protein 2 µM, with: 1-NPN 2 µM | baseline: no ligand | remaining 1-NPN fluorescence | 62.3 ± 1.75%
GAGUUGAGUUGAGUUGAGUUGAGUUGAGUUGAGUUGAGUUGAGUUGAGUUGAGUU (ssRNA; single strand) | mtrB full length assumed T30E (Bacillus subtilis, UniProt P19466) | filter binding | – | with: L-tryptophan 1 mM | – | Kd | 335 ± 5 nM
CCCCCCCCCCCC(C)=O | Chilo suppressalis CSP2 | binding, competitive fluorescence displacement | – | 30 µM, pH 7.4 | – | fluorescence intensity | 46 ± 0.77%
O=C(CC1NCCCC1O)Cn1cnc2cc(Br)c(Cl)cc2c1=O (stereo not shown) | Bifunctional glutamate/proline--tRNA ligase, prolyl-tRNA synthetase domain (EPRS1, Homo sapiens, UniProt P07814) | thermal shift | – | – | – | melting temperature | 73.5 °C and 64.3 °C and 79.8 °C

Excerpt of the above:
Molecule | target | test | system | setting | scale | endpoint | result
CCCCCCCC/C=C\CCCCCCCC(=O)O | Chilo suppressalis CSP2 | binding, competitive fluorescence displacement | – | 30 µM, pH 7.4 | – | fluorescence intensity | 82 ± 3.32%
CHAL | Protein farnesyltransferase | enzyme activity, substrate, fluorimetric | peptide | 3 µM, 30 min, with: 9 µM farnesyl diphosphate | baseline: dansyl-GCVLS (set to 1.0) | relative fluorescence increase | 0
CCC/C=C/CO | Chilo suppressalis CSP2 | binding, competitive ligand, fluorescence competitive binding | – | highest concentration tested, pH 7.4, protein 2 µM, with: 1-NPN 2 µM | baseline: no ligand | remaining 1-NPN fluorescence | 62.3 ± 1.75%
